# Assay results from different studies.
# Each numbered part is a random draw from the data of one study; scales do not carry over between parts. Several values in a cell are separate wells, animals, samples, runs or records.
# UniProt Q15303, sequence (whole entry, looked up): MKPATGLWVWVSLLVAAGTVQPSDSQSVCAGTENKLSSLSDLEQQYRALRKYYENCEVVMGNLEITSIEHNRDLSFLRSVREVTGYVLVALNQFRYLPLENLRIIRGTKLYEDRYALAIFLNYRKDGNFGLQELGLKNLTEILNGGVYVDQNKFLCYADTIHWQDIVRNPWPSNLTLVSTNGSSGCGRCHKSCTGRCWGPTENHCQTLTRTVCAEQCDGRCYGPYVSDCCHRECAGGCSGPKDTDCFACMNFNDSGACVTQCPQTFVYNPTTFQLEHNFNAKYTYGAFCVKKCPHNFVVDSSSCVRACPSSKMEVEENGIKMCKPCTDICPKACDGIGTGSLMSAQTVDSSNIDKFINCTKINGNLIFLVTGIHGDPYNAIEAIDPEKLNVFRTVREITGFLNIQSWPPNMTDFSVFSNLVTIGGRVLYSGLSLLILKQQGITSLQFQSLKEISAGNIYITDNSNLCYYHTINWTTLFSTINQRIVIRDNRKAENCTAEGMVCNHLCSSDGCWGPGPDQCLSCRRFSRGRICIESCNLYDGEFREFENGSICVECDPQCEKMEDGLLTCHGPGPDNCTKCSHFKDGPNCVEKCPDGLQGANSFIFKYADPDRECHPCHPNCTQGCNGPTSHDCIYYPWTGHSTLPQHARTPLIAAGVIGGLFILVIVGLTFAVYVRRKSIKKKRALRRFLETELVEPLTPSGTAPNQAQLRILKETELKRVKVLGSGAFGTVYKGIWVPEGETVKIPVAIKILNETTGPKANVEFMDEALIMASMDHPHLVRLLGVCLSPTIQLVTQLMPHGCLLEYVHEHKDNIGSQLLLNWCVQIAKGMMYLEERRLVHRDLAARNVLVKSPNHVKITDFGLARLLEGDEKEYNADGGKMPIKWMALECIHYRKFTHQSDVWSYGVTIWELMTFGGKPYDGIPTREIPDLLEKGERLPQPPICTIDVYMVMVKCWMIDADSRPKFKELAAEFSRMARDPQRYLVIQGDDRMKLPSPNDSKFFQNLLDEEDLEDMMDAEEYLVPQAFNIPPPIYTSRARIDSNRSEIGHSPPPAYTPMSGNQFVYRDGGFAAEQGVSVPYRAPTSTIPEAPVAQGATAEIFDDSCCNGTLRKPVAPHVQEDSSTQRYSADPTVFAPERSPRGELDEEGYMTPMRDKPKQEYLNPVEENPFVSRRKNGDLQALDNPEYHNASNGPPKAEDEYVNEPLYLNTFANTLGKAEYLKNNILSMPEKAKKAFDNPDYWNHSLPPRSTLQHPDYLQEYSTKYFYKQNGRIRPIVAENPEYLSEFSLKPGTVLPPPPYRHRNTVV
# UniProt Q9HAZ1, sequence (whole entry, looked up): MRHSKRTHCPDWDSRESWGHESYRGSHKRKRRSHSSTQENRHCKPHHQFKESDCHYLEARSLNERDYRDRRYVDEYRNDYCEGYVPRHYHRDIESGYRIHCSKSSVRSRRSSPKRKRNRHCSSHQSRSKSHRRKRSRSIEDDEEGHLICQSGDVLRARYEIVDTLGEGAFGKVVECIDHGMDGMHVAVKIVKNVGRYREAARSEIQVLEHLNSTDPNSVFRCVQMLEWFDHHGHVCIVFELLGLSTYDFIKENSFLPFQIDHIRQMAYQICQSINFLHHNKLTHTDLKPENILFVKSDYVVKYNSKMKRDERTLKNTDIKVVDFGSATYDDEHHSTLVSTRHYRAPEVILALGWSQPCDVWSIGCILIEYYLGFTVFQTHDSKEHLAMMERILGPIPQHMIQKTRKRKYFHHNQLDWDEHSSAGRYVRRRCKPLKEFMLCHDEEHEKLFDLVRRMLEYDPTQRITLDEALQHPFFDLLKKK
# UniProt Q9Y6E0, sequence (whole entry, looked up): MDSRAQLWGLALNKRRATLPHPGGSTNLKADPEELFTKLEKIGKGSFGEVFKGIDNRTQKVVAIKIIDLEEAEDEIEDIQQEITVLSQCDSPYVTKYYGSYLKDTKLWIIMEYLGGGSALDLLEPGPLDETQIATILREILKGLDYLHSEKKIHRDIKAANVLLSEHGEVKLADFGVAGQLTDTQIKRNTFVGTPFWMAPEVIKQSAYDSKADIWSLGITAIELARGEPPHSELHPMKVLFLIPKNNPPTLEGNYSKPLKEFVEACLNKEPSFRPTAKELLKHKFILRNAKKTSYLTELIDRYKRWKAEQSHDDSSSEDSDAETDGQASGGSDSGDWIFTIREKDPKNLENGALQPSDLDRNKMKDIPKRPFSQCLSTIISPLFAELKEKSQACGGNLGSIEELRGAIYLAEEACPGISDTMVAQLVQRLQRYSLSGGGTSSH

# Block 1
# Compound: C=CC(=O)N1CCC([C@@H]2CCNc3c(C(N)=O)c(-c4ccc(Oc5ccccc5)cc4)nn32)CC1
# Read-out: enzyme activity
# Mode: inhibitor
# Concentration: 1 µM
target,inhibition
"STK24 (Homo sapiens, UniProt Q9Y6E0)",0%
"TSSK1B (Homo sapiens, UniProt Q9BXA7)",1%
"PIK3CB (Homo sapiens, UniProt P42338)",6%
"ERBB3 (Homo sapiens, UniProt P21860)",53%
"CAMK1D (Homo sapiens, UniProt Q8IU85)",10%
"ERBB4 (Homo sapiens, UniProt Q15303)",100%

# Block 2
# Compound: CCCOc1ccc([C@H]2[C@H](C(=O)O)[C@@H](c3ccc4c(c3)OCO4)CN2CC(=O)Nc2c(CC)cccc2CC)cc1
# Read-out: cell-free assay
# Technique: competition with immobilised ligand
# Concentration: 1 µM
target,remaining binding [%]
"SRPK2 (Homo sapiens, UniProt P78362)",96
"VRK2 (Homo sapiens, UniProt Q86Y07)",61
"Tyrosine-protein kinase ABL1, phosphorylated (ABL1, Homo sapiens, UniProt P00519, Y253F)",75
"CLK4 (Homo sapiens, UniProt Q9HAZ1)",100
"ERBB4 (Homo sapiens, UniProt Q15303)",100
"MET (Homo sapiens, UniProt P08581, Y1235D)",100
"CASK (Homo sapiens, UniProt O14936)",77
"RIOK1 (Homo sapiens, UniProt Q9BRS2)",86
"CDKL5 (Homo sapiens, UniProt O76039)",85
"GSK3A (Homo sapiens, UniProt P49840)",86
"EPHB1 (Homo sapiens, UniProt P54762)",100
"PRKCI (Homo sapiens, UniProt P41743)",78
"STK36 (Homo sapiens, UniProt Q9NRP7)",98
"NEK5 (Homo sapiens, UniProt Q6P3R8)",29
"CSNK1E (Homo sapiens, UniProt P49674)",100

# Block 3
# Structure (SMILES): CC(=O)N1CCN(c2nc(OC[C@@H]3CCCN3C)nc3c2CCN(c2cccc4cccc(Cl)c24)C3)C[C@@H]1CC#N
# Read-out: binding
# Mode: competitor
# Technique: NanoBRET
# Cell line: HEK293
# KRAS Q61L: GTPase KRas (KRAS, Homo sapiens, UniProt P01116, Q61L)
target,conditions,normalized BRET
KRAS Q61L,1.24 µM,47.4% and 44.4% and 55.5%
KRAS Q61L,412 nM,69.9% and 67% and 74.4%
"GTPase KRas (KRAS, Homo sapiens, UniProt P01116, Q61H)",412 nM,83.2% and 70.9% and 72.2%
"GTPase KRas (KRAS, Homo sapiens, UniProt P01116, G12D)",1.69 nM,95.1% and 103% and 95%
"GTPase KRas (KRAS, Homo sapiens, UniProt P01116, G13D)",15.2 nM,98.3% and 105% and 95.6%

# Block 4
# Target: DNA polymerase theta, ATPase domain (POLQ, Homo sapiens, UniProt O75417)
# UniProt O75417, sequence (whole entry, unmodified, looked up): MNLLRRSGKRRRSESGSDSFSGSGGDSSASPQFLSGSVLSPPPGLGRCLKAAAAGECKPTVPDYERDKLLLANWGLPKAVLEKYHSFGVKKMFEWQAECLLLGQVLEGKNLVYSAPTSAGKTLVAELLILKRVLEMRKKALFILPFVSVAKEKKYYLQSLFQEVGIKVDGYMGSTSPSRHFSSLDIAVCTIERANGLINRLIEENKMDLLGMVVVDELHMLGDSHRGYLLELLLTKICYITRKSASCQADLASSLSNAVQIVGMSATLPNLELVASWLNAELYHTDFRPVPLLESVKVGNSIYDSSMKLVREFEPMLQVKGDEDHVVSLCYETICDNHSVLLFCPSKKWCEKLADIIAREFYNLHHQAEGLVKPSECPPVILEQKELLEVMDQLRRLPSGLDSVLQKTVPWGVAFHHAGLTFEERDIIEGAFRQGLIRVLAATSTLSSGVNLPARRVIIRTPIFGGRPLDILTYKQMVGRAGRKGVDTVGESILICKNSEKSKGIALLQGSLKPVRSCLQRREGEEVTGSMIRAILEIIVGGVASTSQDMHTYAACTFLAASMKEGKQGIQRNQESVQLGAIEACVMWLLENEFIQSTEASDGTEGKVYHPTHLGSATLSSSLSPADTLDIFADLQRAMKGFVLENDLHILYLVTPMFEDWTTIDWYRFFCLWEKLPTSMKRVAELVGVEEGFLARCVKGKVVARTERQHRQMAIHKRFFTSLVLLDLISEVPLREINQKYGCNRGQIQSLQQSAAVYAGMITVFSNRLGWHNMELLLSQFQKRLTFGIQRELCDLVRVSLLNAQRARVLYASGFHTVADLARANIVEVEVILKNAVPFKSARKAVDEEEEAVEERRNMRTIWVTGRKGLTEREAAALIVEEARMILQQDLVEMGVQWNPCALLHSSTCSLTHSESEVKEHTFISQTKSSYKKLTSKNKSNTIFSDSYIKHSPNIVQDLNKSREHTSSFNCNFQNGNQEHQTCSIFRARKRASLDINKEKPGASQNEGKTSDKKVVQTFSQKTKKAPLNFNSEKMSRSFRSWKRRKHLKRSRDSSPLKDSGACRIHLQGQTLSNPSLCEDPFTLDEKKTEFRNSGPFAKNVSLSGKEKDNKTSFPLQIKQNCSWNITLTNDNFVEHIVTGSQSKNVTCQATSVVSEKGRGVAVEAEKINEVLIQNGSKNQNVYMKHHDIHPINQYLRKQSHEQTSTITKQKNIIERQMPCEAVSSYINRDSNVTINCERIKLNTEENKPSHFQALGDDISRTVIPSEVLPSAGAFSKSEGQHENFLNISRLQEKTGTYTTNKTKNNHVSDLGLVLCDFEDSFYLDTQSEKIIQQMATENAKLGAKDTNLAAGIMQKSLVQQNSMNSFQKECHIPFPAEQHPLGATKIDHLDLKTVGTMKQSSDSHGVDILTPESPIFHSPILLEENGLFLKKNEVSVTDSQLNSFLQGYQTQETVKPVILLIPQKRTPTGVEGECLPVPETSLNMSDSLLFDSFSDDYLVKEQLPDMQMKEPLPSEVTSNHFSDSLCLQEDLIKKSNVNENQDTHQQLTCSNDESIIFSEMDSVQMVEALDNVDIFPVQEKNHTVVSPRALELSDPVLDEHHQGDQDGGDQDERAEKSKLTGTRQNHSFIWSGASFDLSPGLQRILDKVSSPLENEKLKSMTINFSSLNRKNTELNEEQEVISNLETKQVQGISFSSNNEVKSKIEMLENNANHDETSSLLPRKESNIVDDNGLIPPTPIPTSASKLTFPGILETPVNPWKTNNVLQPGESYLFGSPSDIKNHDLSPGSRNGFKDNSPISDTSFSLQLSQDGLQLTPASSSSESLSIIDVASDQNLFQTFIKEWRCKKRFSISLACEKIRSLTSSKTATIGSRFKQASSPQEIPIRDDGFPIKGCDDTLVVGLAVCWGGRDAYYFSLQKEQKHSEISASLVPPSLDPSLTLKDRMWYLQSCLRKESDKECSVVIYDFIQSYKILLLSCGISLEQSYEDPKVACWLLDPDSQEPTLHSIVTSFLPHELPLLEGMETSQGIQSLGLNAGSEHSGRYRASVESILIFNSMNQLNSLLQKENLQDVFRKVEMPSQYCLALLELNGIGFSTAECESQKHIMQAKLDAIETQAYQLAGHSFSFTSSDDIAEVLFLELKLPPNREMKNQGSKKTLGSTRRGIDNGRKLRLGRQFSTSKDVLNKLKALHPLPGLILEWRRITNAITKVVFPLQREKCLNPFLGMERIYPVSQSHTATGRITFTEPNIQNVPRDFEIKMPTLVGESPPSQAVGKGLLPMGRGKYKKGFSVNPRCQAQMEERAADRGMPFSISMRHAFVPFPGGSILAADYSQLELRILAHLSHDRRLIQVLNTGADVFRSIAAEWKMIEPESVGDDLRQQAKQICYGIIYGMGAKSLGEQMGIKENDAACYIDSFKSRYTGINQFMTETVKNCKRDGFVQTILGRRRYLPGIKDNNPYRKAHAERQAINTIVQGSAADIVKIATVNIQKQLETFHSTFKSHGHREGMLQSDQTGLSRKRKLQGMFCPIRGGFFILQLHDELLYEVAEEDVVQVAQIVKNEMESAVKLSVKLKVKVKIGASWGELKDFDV
# Read-out: enzyme activity
# Mode: inhibitor
# Concentration: 77 µM
SMILES,remaining activity
CNCC[C@H](Oc1ccc(C(F)(F)F)cc1)c1ccccc1,93.5%
C[C@]12CC[C@H]3C(=CCc4cc(O)ccc43)[C@@H]1CCC2=O,102%
Cc1c(F)cc(C(=O)NC2CC2)cc1-c1ccc(C(=O)NCC(C)(C)C)cn1,103%
CC[N+](C)(C)c1cccc(O)c1,92.1%
CC(C)NC[C@H](O)COc1cccc2ccccc12,101%
C=C1CC[C@H](O)C/C1=C/C=C1\CCC[C@]2(C)[C@@H]([C@H](C)CCCC(C)C)CC[C@@H]12,97.5%
